Experimental data collected from several papers.
Each line is one published result; not all experiments were run side by side.

For `C[C@@H](c1ccc2nccn2c1)n1nnc2ncc(-c3cnn(C)c3)nc21`, “patients with adverse events” read 1% (refers to: treatment-related grade ≥3 Diarrhea; EGFR-mutant MET-altered NSCLC; oral, dose not given, all).
Under “patients with immune-mediated AE”, `Cc1cc(-c2nnc(N)nc2-c2ccc(F)cc2)cc(Cl)n1` is recorded as 0% (refers to: Hyperthyroidism; IO-naive mCRPC patients, male; oral, dose not given, treatment-related, grade 2).
For `CNC(=O)c1cc(Oc2ccc(NC(=O)Nc3cc(C(C)(C)C)nn3-c3ccc4ncccc4c3)c(F)c2)ccn1`, “patients with nervous system disorders” read 43% (patients; oral, dose not given, cycles 1 and 2, Medium AUC subgroup).
`C=CC(=O)Nc1cc(Nc2nccc(-c3cn(C)c4ccccc34)n2)c(OC)cc1N(C)CCN(C)C`: “patients with adverse events” 1% (refers to: treatment-related grade ≥3 Paronychia; EGFR-mutant MET-altered NSCLC; oral, dose not given, all).
Under “patients with treatment-related adverse event”, `FC(F)(F)c1ccc(CNc2ccc(Cc3c[nH]c4ncc(Cl)cc34)cn2)cn1` is recorded as 36% (refers to: at least 1 adverse event; patients with TGCT; oral, 1000 mg/day, grade 3 or higher).
`Cc1cc(NC2CCN(C(=O)OC3CCN(C(=O)/C=C/CN(C)C)C3)CC2)n2ncc(C(C)C)c2n1` (centres unmarked) — result for “patients with adverse event”: 7% (Phase I dose escalation CTCAE v4.0, refers to: back pain; patients with advanced solid tumours; dose not given, QD dosing any grade).
`COc1ccc([C@@H](O)c2cc(-c3ncnc4cc(N5CCOCC5)ccc34)c(F)cc2Cl)nn1` — result for “patients with fatigue”: 100% (locally advanced rectal cancer patients; 50 mg, drug-related adverse events, added: capecitabine and radiotherapy).
`O=C(Nc1nc2cccc(-c3ccc(CN4CCS(=O)(=O)CC4)cc3)n2n1)C1CC1`: “patients with adverse event” 0% (refers to: angina pectoris; rheumatoid arthritis patients; oral, 150 mg once daily, 4 weeks, any relatedness).
The patients of `CCOc1c([C@H](C)n2nc(C)c3c(N)ncnc32)cc(Cl)c(F)c1[C@@H]1CNC(=O)C1` is reported as 0% (refers to: QTcF change above 60 ms; previously treated B-cell malignancy; oral, 45 mg once daily, baseline QTcF ≤450 ms; relative to: baseline).
For `CNC(=O)c1ccc(-c2cnc3ncc(Cc4ccc5ncccc5c4)n3n2)cc1F`, “patients with adverse event” read 0% (refers to: Insomnia; hepatocellular carcinoma patients; oral, 600 mg twice daily, expansion cohort, grade 3-4).
For `C=CC(=O)NC1CCN(c2ncc3ncnc(Nc4ccc(Oc5ccc6c(c5)ncn6C)c(C)c4)c3n2)CC1`, “patients with eye pain” read 0% (male patients; oral, dose not given, on-treatment adverse events).
`COc1cc(Nc2ncc3c(n2)-c2ccc(Cl)cc2C(c2c(F)cccc2OC)=NC3)ccc1C(=O)O`: “patients with back pain” 17% (cancer patients; oral, dose not given, all grades any attribution, added: pembrolizumab).
For `NC(=O)N1c2ccccc2C=Cc2ccccc21`, “patients with muscle twitching” read 7% (male patients; oral, dose not given, on-treatment adverse events).
Under “patients discontinuing for AE”, `C[C@@H](Nc1cc(F)cc(F)c1)c1cc(C(=O)N(C)C)cc2c(=O)cc(N3CCOCC3)oc12` is recorded as 0% (CTCAE v4, refers to: alkaline phosphatase increased; patients with advanced solid tumours; oral, dose not given, phase I dose expansion).

Repeated from above:
For `C[C@@H](c1ccc2nccn2c1)n1nnc2ncc(-c3cnn(C)c3)nc21`, “patients with adverse events” read 1% (refers to: treatment-related grade ≥3 Diarrhea; EGFR-mutant MET-altered NSCLC; oral, dose not given, all).
